Measured values from different studies.
Each line is one published result; not all experiments were run side by side. ± marks the error that the study gave.
GRK6: G protein-coupled receptor kinase 6 (GRK6, Homo sapiens, UniProt P43250)
UniProt P43250, sequence (whole entry, looked up): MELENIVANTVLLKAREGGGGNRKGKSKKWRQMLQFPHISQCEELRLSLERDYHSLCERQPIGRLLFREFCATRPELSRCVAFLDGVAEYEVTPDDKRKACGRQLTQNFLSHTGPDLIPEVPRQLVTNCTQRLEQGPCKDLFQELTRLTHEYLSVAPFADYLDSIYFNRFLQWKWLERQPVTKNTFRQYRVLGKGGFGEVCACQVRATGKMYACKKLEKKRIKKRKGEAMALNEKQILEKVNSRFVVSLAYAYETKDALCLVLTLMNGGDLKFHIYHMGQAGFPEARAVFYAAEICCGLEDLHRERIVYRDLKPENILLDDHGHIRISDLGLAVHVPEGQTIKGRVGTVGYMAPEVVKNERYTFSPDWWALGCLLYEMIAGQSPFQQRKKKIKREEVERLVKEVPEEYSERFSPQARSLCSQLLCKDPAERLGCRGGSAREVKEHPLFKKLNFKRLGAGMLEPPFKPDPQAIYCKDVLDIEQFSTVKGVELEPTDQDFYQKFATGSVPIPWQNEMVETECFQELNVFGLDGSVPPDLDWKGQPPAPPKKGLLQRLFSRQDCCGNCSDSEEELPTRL
NEK2: Serine/threonine-protein kinase Nek2 (NEK2, Homo sapiens, UniProt P51955)
UniProt P51955, sequence (whole entry, looked up): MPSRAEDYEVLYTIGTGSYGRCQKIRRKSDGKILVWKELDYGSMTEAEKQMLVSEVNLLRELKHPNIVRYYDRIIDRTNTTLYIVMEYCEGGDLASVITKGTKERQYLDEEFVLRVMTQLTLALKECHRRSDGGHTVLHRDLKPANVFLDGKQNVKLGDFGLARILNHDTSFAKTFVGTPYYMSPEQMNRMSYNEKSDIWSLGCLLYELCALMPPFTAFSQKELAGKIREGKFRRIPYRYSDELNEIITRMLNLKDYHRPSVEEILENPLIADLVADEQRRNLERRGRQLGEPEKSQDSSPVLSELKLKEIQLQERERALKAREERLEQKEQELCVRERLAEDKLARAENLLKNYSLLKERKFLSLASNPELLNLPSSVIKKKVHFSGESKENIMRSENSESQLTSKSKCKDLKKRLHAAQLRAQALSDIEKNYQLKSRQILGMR
UniProt P51617, sequence (whole entry, looked up): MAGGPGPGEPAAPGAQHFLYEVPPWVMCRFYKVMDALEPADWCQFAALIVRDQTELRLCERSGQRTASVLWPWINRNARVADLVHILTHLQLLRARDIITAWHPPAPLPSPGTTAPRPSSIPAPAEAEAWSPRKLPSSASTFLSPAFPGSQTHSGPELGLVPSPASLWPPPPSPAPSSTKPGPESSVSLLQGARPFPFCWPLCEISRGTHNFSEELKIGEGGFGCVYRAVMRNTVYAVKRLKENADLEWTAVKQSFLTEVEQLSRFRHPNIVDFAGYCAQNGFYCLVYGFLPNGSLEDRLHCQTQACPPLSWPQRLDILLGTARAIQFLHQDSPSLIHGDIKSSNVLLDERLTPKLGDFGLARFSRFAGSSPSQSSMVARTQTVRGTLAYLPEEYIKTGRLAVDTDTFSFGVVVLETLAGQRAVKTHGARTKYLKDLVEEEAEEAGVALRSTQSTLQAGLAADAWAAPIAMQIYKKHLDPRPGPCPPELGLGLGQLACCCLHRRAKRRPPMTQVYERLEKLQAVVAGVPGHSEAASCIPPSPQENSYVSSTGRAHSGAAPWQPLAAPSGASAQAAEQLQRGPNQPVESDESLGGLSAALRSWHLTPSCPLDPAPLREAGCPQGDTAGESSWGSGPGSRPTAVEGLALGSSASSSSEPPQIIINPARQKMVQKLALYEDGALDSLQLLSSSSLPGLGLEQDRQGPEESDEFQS
UniProt Q53GS9, sequence (whole entry, looked up): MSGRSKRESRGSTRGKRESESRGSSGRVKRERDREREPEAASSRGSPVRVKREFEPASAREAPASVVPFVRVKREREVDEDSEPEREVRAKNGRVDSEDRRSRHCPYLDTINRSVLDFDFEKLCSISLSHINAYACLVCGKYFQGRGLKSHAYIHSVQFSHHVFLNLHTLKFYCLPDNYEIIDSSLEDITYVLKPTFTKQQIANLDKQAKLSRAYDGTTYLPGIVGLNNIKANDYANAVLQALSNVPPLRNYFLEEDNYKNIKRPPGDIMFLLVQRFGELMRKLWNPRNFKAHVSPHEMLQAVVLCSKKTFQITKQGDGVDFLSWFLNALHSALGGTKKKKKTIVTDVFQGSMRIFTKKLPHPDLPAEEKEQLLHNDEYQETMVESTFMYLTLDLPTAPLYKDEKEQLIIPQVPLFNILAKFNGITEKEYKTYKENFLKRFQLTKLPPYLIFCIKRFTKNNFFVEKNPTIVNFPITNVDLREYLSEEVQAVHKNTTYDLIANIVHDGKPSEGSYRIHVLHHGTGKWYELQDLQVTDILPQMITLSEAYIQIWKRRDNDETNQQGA
UniProt Q70CQ1, sequence (whole entry, looked up): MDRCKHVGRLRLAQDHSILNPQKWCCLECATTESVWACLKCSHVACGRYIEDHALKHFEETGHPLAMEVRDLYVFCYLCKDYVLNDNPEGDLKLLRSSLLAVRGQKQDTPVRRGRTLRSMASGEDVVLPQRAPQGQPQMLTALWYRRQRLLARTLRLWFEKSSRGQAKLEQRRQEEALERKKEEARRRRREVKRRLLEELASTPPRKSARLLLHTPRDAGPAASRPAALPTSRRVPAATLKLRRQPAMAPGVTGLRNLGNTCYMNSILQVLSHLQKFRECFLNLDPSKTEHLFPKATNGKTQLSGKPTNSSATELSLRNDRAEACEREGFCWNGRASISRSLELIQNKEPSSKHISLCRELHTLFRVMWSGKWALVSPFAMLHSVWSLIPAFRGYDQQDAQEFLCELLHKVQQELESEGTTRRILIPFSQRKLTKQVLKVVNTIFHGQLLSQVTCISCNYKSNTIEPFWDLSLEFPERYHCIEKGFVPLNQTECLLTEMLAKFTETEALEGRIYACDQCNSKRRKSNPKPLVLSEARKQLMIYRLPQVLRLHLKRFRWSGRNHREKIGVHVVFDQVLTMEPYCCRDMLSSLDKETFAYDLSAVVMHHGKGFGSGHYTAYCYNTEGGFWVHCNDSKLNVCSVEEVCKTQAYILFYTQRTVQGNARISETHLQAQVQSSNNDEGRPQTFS
UniProt Q9Y345, sequence (whole entry, unmodified, looked up): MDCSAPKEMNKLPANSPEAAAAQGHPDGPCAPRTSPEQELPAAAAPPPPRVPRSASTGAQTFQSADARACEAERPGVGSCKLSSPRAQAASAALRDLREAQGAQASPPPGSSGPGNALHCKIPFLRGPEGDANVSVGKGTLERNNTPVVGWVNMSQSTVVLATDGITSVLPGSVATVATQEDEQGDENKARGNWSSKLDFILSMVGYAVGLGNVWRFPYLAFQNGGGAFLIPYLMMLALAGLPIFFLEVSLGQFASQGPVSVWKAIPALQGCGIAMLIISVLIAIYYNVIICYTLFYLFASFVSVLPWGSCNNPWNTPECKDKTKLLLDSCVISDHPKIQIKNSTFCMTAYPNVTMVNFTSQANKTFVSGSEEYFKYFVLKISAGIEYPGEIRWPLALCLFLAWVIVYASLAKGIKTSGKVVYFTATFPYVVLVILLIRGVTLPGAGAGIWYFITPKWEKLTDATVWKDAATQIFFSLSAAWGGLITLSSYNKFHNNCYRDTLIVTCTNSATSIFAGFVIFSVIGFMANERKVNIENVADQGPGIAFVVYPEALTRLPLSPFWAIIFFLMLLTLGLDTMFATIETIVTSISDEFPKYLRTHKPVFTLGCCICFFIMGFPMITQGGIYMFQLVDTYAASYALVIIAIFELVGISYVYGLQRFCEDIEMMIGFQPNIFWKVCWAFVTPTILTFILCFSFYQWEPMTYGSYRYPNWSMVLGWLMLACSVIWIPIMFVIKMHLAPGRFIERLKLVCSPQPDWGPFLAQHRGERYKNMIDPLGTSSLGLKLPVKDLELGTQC

Compound | tested on | assay | conditions | scale | measurement | value
C1=C/COCc2cc(ccc2OCCN2CCCC2)Nc2nccc(n2)-c2cccc(c2)COC/1 | Epidermal growth factor receptor (EGFR, Homo sapiens, UniProt P00533, del746-750) |  | concentration not given | relative to: untreated control | remaining activity | 71%
NC/C(=C\F)COc1cccc(Cn2c(=S)[nH]c(=O)c3[nH]cnc32)c1 | Peroxidasin homolog (PXDN, Homo sapiens, UniProt Q92626) | Amplex UltraRed | 1.25 µM, mean of replicates | relative to: control | remaining activity | 95.6%
CC(C)(C)C(=O)c1sc(NC2CCCCC2)nc1N | AMP-activated protein kinase | enzyme activity, inhibitor | 10 µM |  | remaining activity | 101%
O=C(O)c1cc(=O)[nH]c(=O)[nH]1 |  | binding, equilibrium dialysis LC-MS | 5 µM, thermostabilized A2AR-BRIL construct | relative to: no-protein control, direction not given | z-scored log2 fold change | 0.365
Cc1cc(Nc2cc(N3CCN(C)CC3)nc(Sc3ccc(NC(=O)C4CC4)cc3)n2)[nH]n1 | Glycogen synthase kinase-3 alpha (GSK3A, Homo sapiens, UniProt P49840) | kinase activity, KinaseProfiler | 0.03 µM, species human | relative to: control | remaining activity | 98%
CNc1ncc2c(/C=C/C(=O)N3CCC(OC)CC3)nn(Cc3cccc(C(F)(F)F)c3)c2n1 | Serine/threonine-protein kinase NLK (NLK, Homo sapiens, UniProt Q9UBE8) | kinase activity, inhibitor | 1 µM | relative to: untreated control | remaining activity | 89%
CC#CC(=O)N1CCC[C@H]1c1nc(-c2ccc(C(=O)Nc3ccccn3)cc2)c2c(N)nccn12 | GRK6 | kinase activity, inhibitor, HotSpot radiometric | 100 nM, with: ATP 10 µM |  | remaining activity | 105 ± 1.7%
Nc1ncnc2c1ncn2C1CCCC1 | Inositol-tetrakisphosphate 1-kinase (Homo sapiens, UniProt Q13572) | enzyme activity, inhibitor, radiometric kinase | 10 µM, with: ATP 1 mM | relative to: control | remaining activity | 30%
Cc1cc(NC(=O)c2cccc(NC(=O)/C=C/CN(C)C)c2)ccc1Nc1nccc(-c2cccnc2)n1 | Mitogen-activated protein kinase 8 (MAPK8, Homo sapiens, UniProt P45983) | enzyme activity, inhibitor | 0.06097 µM, 6 h, unit not given, with: GSH 10 mM pre-incubation | relative to: vehicle | remaining activity | 0.986
O=C(NC1CCC1)c1ccc2nc(-c3cccc(NS(=O)(=O)NCCN4CCCCC4)c3)cn2c1 | NEK2 | enzyme activity | 10 µM |  | remaining activity | 90%
O=C(O)c1ccc(Nc2ncc3c(n2)-c2ccc(Cl)cc2C(c2c(F)cccc2F)=NC3)cc1 | GSK3α(h) | kinase activity | 1 µM |  | remaining activity | 110%
Nc1ncc2c(n1)-c1c([nH]c3ccc(-c4ccc(F)cc4)cc13)CCC2 | Serine/threonine-protein kinase PAK 3 (PAK3, Homo sapiens, UniProt O75914) | kinase activity, inhibitor, radiometric | 1 µM, with: ATP at Km |  | remaining activity | 98%
CNCC(=O)O | Sodium- and chloride-dependent glycine transporter 2 (Homo sapiens, UniProt Q9Y345, S479G) | glycine uptake, inhibitor, [3H]glycine uptake | 2000 µM, S479G mutant, log concentration 2, with: [3H]glycine | relative to: no inhibitor | remaining activity | 44.4%
c1cnc2ccc(Nc3nc(NC4CC4)c4nc[nH]c4n3)cc2c1 | Phosphatidylinositol 4-kinase alpha (PI4KA, Homo sapiens, UniProt P42356) | kinase activity, inhibitor, SelectScreen kinase profiling | 1 µM | relative to: control | remaining activity | 94%
O=C(O)Cn1ccc2ccccc2c1=O | Ubiquitin carboxyl-terminal hydrolase 49, ZnF-UBD domain (USP49, Homo sapiens, UniProt Q70CQ1) |  |  |  | Kd | > 1000 µM
Cc1ccc(NC(=O)c2ccc(C)c(C(F)(F)F)c2)cc1C#Cc1nn(C2CCC(O)CC2)c2ncnc(N)c12 (centres unmarked) | Phosphatidylinositol 4,5-bisphosphate 3-kinase catalytic subunit alpha isoform, with p85 alpha (Pik3ca, Mus musculus, UniProt P42337, E545K) | enzyme activity, inhibitor | 10 µM, p110a(E545K)/p85a)(m mouse, with: ATP 10 µM |  | remaining activity | 87%
CSc1nc(C)c(CCC(=O)O)c(=O)[nH]1 | Ubiquitin carboxyl-terminal hydrolase 39, ZnF-UBD domain (Homo sapiens, UniProt Q53GS9) |  |  |  | Kd | 389 µM
C=CC(=O)N1CCC[C@@H](n2nc(-c3ccc(Oc4ccccc4)cc3)c3c(N)ncnc32)C1 | Interleukin-1 receptor-associated kinase 1 (IRAK1, Homo sapiens, UniProt P51617) |  | 1 µM |  | remaining activity | 324%
COc1ccc(F)cc1C(=O)NCc1ccc(-c2nn([C@@H](C)C(F)(F)F)c(N)c2C(N)=O)cc1 | Tyrosine-protein kinase CSK (CSK, Homo sapiens, UniProt P41240) | kinase activity, inhibitor, HotSpot radiometric | 1000 nM, with: ATP at Km |  | remaining activity | 34.3 ± 0.5%
O=C1NC(=O)/C(=C/c2ccc(-c3ccc(F)cc3O)o2)S1 | NEK2 | enzyme activity | 10 µM |  | remaining activity | 136%
COc1cc(F)ccc1-c1ncnc(Nc2cccc(C[S@](C)(=N)=O)c2)n1 | Macrophage colony-stimulating factor 1 receptor (CSF1R, Homo sapiens, UniProt P07333) | kinase activity | 10 µM, with: 10 µM ATP |  | remaining activity | 33%
COc1cc(N2CCN(C)CC2)ccc1Nc1nc(N)n(C(=S)NCc2c(Cl)cccc2Cl)n1 | Mast/stem cell growth factor receptor Kit (KIT, Homo sapiens, UniProt P10721, L576P) | enzyme activity | 10 µM | relative to: control | remaining activity | 0%
COc1cc(-c2cncc3c2CN(C)Cc2cc(N4CCNCC4)ccc2-3)cc(OC)c1OC | Serine/threonine-protein kinase Nek11 (NEK11, Homo sapiens, UniProt Q8NG66) | kinase activity | 1 µM, human enzyme, with: ATP 10 µM | relative to: DMSO control | remaining activity | 112%
COc1cc(Nc2ncc3c(n2)-c2ccc(Cl)cc2C(c2c(F)cccc2OC)=NC3)ccc1C(=O)O | JAK3 | kinase activity | 1 µM |  | remaining activity | 96%
C=CC(=O)N1CCC[C@@H](n2nc(-c3ccc(Oc4ccccc4)cc3)c3c(N)ncnc32)C1 | GRK6 | kinase activity, inhibitor, HotSpot radiometric | 100 nM, with: ATP 10 µM |  | remaining activity | 95.3 ± 1%
O=C[C@H](O)[C@@H](O)[C@H](O)[C@H](O)COP(=O)(O)O |  | binding, equilibrium dialysis LC-MS | 5 µM, thermostabilized A2AR-BRIL construct | relative to: no-protein control, direction not given | z-scored log2 fold change | 0.126

Repeated from above:
Compound | tested on | assay | conditions | scale | measurement | value
Nc1ncc2c(n1)-c1c([nH]c3ccc(-c4ccc(F)cc4)cc13)CCC2 | Serine/threonine-protein kinase PAK 3 (PAK3, Homo sapiens, UniProt O75914) | kinase activity, inhibitor, radiometric | 1 µM, with: ATP at Km |  | remaining activity | 98%
CNCC(=O)O | Sodium- and chloride-dependent glycine transporter 2 (Homo sapiens, UniProt Q9Y345, S479G) | glycine uptake, inhibitor, [3H]glycine uptake | 2000 µM, S479G mutant, log concentration 2, with: [3H]glycine | relative to: no inhibitor | remaining activity | 44.4%
